Measured values pooled from the literature.
Each numbered part is a random draw from the data of one study; scales do not carry over between parts.

Set 1 — method: RNA Bind-n-Seq; form: RNA; medium: in vitro; concentration: not given; notes: RNA with constant flanks, ends assumed; relative to: input RNA pool; direction: higher = stronger binding
Target: RING finger protein unkempt homolog, zinc fingers 1-6, GST-SBP tag (UNK, Homo sapiens, UniProt Q9C0B0, residues 30-357)
Target sequence (chain): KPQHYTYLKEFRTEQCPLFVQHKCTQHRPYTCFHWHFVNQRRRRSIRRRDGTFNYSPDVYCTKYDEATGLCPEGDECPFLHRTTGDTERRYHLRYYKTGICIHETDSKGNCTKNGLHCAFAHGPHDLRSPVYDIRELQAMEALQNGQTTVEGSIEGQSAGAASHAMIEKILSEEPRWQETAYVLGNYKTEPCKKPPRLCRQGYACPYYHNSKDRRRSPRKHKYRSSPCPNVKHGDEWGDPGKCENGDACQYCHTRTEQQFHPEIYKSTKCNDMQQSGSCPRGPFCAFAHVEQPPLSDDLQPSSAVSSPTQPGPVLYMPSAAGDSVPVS
Sequence	bound/input enrichment [ratio]
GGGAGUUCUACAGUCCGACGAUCCCGGGUCAGCUGAGGUGGACGGCCUCGGCAAGCGGGUUUUUUUCCCCUAGAGUUGUAUAUACCGAGCAUCCUGGACUCCACAAUGAACGGACAGUUGGACCUAAGUGGGAAGCUGAUUAUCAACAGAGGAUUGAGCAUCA	0.534
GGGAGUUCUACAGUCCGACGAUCUCCUGAAGCUUUGUGUUUGGCUGCACCUGCAUAAGCUGCUACAAAUAGAAUAAAGAAUUUCACCGCCUGUAUCUAUCAUUUAGAUGCAUGGAAAAAAAUGGGCUUUGCACACAAUGGGUUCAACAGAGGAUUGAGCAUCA	3.93
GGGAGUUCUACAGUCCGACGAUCGGCAUCGCGGGCUGUGGAACUCUAUUAGUAUUGGAUCAAAAUGAAUCUGGACUUCAGAUUUUCCGAAGCUUUGACUGGAAUGACGGCUUGUUUGACGUUACCUGGAGUGAAAACAAUGAGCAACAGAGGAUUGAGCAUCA	1.17
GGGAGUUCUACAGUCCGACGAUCGGGAUUUCAUUUAUCUUUUGCUGUUUCCGAAACAAUGACCAUCCAGAAAUCACAUAUCGGCUCCGGAAUGAUAGCAACUUUGCACUUCAGACAAUGGAGCCGGCGCUGCCCAUGCCCCCUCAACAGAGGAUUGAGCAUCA	0.0825
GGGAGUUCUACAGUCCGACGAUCCUCAUGCAGUUGUGGUCAAUAUUGUGGUAAUCGCUAAUUGUACUGAUUGUUUAAGUGUGCAUCCGUUGUGUCUCCCCAGCUAGAUUGUAAGCUCCUGGAGGACAGGGACCACCUCUACAACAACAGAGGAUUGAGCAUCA	0.189
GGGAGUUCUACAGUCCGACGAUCUCUUGGUCUCCAAGUCCUGCACCUUACUUUGAAACACCACUGGCUCCCUUUCCCAAUGGCCGUUUUGUGAAUGGCUUUAGUUCACCAGGAUCUUACAAAACAAAUGCUGCUGCUAUGAAUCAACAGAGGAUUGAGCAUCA	0.756
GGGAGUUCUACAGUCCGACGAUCCGAGAAGCUGUUUGCAUCGUCCUUUCUGAUGAUACUUGUUCUGAUGAGAAGAUUCGGAUGAACCGAGUUGUUCGGAAUAACCUUCGUGUACGCCUAGGGGAUGUCAUCAGCAUCCAGCCACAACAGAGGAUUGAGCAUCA	0.0995
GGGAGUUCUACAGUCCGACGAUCUCGCCUGUUCAGGACAUCGACACUCCAGAGGUUGAUUUGUACCAAUUACAAGUAAAUACACUCCGAAGAUACAAAAGACACUUCAAGCUUCCAACCAGACCAGGUCUAAAUAAAGCACAACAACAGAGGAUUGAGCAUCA	0.119
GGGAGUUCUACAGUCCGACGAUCAACCUCCUUCCUACUGGUUUAGACUACACUUACAACAAGGAAAAUGCCCCUCGUGUGACCACCGAUUGAGAUUUAUACCACAUACCACACAUAGCCACAGAAACAUCAUCUUGAAAUAAACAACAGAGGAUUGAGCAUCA	1.9
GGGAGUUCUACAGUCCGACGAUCAAUGAAGCUGAAAUAUGUGAGAGCAUGCCCAUGGUCUCUGGAGCACCAGCACAAGGGUUGGCCGCAAGACCAUCCAGUGUGAACUAUAUGGUAGCACCUGUGACAGGUAACGAUGCUGGACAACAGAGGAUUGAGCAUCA	0.107
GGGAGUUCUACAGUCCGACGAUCAGCAAUCCAGAUCUCUAUGGUCCCUUUUGGAUAUGUGCCACGUUGGUCUUUGCCACCGCAAUCCGUGGGAACCUUUCUAACUUCCUAAUCCAUCUGGGAGAGAAGACAUACCAUUAUGUGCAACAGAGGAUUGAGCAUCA	0.109

Set 2 — method: RNA Bind-n-Seq; form: RNA; medium: in vitro; concentration: 1 µM; notes: whole 134-nt RNA, ends assumed; together with: 150 mM KCl; relative to: input library; direction: higher = stronger binding
Target: Ras GTPase-activating protein-binding protein 1, RRM domain (G3BP1, Homo sapiens, UniProt Q13283)
UniProt Q13283, sequence (whole entry, looked up): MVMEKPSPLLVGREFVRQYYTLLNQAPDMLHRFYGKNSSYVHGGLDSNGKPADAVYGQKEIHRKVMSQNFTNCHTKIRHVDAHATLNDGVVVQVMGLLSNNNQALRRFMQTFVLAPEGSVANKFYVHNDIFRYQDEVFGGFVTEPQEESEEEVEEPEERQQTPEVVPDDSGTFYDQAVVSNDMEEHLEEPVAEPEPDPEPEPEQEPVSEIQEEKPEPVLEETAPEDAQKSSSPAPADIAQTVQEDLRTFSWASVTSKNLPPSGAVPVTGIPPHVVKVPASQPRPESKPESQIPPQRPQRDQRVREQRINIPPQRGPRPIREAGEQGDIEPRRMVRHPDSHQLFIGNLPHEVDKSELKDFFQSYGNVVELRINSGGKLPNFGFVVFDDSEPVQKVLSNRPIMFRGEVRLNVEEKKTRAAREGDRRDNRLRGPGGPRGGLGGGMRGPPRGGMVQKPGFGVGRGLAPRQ
Sequence	log2 enrichment
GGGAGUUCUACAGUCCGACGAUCAGUCCUGUGCUACACAUCGUAUGUACCGAAUCAAACCCAAAUUUUUUUAAACCCAAAAAAGUAUUAUGUUACGCCGUUCGGAUCUGCACUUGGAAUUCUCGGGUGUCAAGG	-0.866
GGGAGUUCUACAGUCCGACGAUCUCAAGUCCUGUGCUACACAUCGUAUGUACCGAAUCGGGUUGGGGUUGGGUUGGGAAAGUAUUAUGUUACGCCGUUCGGAUCUGCACUUCCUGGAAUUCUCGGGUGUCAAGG	0.663
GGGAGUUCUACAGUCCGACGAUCUCAAGUCCUGUGCUACACAUCGUAUGUACCGAAUCGGGAAGGGGAAGGGGAAGGGAAAGUAUUAUGUUACGCCGUUCGGAUCUGCACUUCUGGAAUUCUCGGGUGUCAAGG	1
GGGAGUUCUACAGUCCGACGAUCUCCUGUGCUACACAUCGUAUGUACCGAAUCGGGGAAAAAGGGGUUUUUUUGGGGAGGGGAAAGUAUUAUGUUACGCCGUUCGGAUCUGCAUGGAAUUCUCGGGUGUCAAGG	0.829
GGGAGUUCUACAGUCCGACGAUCCAAGUCCUGUGCUACACAUCGUAUGUACCGAAUCGGAAAGGAAAGGAAAAAAAGGAAAGUAUUAUGUUACGCCGUUCGGAUCUGCACUUCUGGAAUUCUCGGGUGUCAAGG	-0.0554
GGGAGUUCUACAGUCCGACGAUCCACAGACAACACGCACCCACACAGACACAGAGGGAAGGGGUUGGGAUGGGGACAGGGUGCACAGCAGGGCGGGGUAGAAACCCAGCCCCUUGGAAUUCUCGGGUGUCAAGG	-0.0849
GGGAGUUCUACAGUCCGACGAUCUCCUCAAGUCCUGUGCUACACAUCGUAUGUACCGAAUCGGAGGUUUGGUGGAAAGUAUUAUGUUACGCCGUUCGGAUCUGCACUUCCAGCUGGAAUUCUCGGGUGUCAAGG	-0.285
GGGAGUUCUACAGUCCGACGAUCCACAGACAACACGCACCCACACAGACACAGAGGGAAGGGGUUGGGAUGGGGACAGGGUGCACAGCAGAAAGGGGUAGGACCCCAGCCCCUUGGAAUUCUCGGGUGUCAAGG	-0.0894
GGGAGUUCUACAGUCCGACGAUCUCAAGUCCUGUGCUACACAUCGUAUGUACCGAAUCGGGAAAGGAAAGGGGAAAGGAAAGUAUUAUGUUACGCCGUUCGGAUCUGCACUUCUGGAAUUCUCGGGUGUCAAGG	-0.305
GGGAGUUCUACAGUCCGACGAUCUUAAGAAUAUUUAGAUAUUUGUAAAAGAAUUUGAAUGAUUUAUUUAAUAUAACGUUUAUUUUAUUAGCUCUAUUCCAAUUGAUUACAACCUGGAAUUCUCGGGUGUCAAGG	-0.21

Set 3 — method: universal PBM; form: double-stranded DNA, one strand shown; medium: in vitro; concentration: 600 nM; direction: higher = stronger binding
Target: Sal-like protein 4, full length isoform A (SALL4, Homo sapiens, UniProt Q9UJQ4, residues 1-1053)
UniProt Q9UJQ4, sequence (whole entry, looked up): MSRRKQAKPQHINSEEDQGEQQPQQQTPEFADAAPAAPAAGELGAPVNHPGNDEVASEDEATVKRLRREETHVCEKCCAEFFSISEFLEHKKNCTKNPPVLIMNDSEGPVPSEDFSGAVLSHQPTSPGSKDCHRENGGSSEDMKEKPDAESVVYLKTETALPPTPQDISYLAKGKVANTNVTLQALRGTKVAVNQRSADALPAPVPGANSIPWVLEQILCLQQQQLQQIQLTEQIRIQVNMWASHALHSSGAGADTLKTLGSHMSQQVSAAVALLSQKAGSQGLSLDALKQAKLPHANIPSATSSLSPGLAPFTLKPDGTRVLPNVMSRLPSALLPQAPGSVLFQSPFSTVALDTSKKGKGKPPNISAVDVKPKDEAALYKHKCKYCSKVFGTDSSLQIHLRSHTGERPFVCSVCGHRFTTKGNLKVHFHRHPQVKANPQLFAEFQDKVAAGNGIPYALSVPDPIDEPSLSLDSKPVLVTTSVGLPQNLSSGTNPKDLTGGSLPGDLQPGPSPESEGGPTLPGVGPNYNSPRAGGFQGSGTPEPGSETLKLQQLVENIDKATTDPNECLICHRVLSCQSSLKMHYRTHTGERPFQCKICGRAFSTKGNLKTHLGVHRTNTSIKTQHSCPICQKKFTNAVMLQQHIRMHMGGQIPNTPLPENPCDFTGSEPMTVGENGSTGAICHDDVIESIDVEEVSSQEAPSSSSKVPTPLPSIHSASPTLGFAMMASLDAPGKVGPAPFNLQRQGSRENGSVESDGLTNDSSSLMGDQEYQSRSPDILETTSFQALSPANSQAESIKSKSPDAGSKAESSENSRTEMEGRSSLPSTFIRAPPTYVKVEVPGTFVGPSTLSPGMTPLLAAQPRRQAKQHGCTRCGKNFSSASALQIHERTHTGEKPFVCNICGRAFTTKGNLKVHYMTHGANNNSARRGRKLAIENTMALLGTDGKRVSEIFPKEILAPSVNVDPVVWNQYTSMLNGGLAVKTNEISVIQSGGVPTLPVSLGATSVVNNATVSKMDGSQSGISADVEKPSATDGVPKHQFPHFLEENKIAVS
Notes: 8-mer, flanks averaged, mean of replicates
Sequence	E-score
ATTCCAAT	0.244
GCATCTAA	0.142
ATCGTAGG	0.029
TAATAGGA	0.336
AACTTACA	0.239
ATCAAGAT	0.202
ACGACACG	-0.0798
AATAGTGC	0.0636
CGAGACAA	-0.142
GAGCCGGA	-0.171
ATCACCGA	0.128
AACGCAAC	0.0897
ATTCGGCC	-0.225
GTTCAAAA	0.154
GTAGAGGA	-0.0728
GTGACGTA	0.00543

Set 4 — method: RNA Bind-n-Seq; form: RNA; medium: in vitro; concentration: 365 nM; relative to: no-protein control; direction: higher = stronger binding
Target: RNA binding protein fox-1 homolog 2, RRM domain, GST-SBP tag (RBFOX2, Homo sapiens, UniProt O43251-10, residues 100-194)
Notes: natural RNA segment, single round, ends assumed
Construct (chain): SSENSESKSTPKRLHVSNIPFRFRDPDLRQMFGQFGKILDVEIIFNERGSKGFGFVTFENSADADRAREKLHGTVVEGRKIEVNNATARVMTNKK
Sequence	RBNS enrichment (R)
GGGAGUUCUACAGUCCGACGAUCGGUGCUUCACACACCAUUUAGGAGGCCACCCUAACGAGGCAAGAGGACAUGGGGGUGUGCAGAAGUUCUGUUCUUAGUGAGAAUGGCUGGCCUGAGAAUCCAGCUCACCUUGGAAUUCUCGGGUGCCAA	0.657
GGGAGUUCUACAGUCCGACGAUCAAAUGGAGUCAGGCGAAGUCCACCUUGUACGCUGCUGUGCGGCUUAGGAAUAAAGUGAAUCUCUUCCAAACUGCCUUUGUGUGAUGGCUCUGUUCCUCCCUUUUUUGGCAUGGAAUUCUCGGGUGCCAA	0.418
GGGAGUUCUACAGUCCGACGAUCUGCUGCAGAGCUGUGCCUCGCUGUGGAAAGCCCCAGCCCCACACAGAGAGCAAACAGUGAGAUAACAGGAGCUGUCUGUCGCAAAGCUUGCUUUCCACUGACACUCAGUUUGGAAUUCUCGGGUGCCAA	0.19
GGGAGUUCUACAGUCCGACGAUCCACACAAGUGAAAAGCUCCCUGCUUUGAAAACAGGACAUGUUGACAGGCAGCAUGGUAUGUUUUUAGCCUUUGUUACAGUUUUAGCAACAUUGAUGUCUAAGAGGGGCCGUGGAAUUCUCGGGUGCCAA	1.45
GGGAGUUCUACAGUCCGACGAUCGCAGGAUGAAUUUUCUGCAGCUGUUUCAAAGUUGGGGUCUGUUCUUGAAUCCUCUAUUAAUUACUGUGUGUGAGCCAGAGGGAGCUGUGGUAAGGGUUGGGCCCCCAGCCUGGAAUUCUCGGGUGCCAA	1.22
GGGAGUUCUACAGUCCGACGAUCCCUGAUGGUGUCUGUUCCCACAAUAUCCUUCUAGUCUGCAUCGUGAAGUGGCUUAGGCCAAAGCUUCCUGUGUGAUGACGCACGUCCGAGACUGUUCCAUCUCAUUCCUCUGGAAUUCUCGGGUGCCAA	0.312
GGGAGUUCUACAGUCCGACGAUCCUAUUAAAAAUCAGAUUGAAAAGUUUUGAGAAAAUGUUAUUUUUACUGAAAGCAAGCAGUGGCCUAUAAAGAACAUUCUUAGGAGCCUUUUCUAUUUGCGUUCAAAACUGUGGAAUUCUCGGGUGCCAA	0.452
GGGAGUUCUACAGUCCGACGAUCGUUUAUGGACUUAACUAUUUCUGUGAUGUUUCAUUUUUAGCCAUGUUAACUCCUAACACAUAUUCUCUUAUGUCUCAGUAAAGUUUCAUUUGAUAAGUUGUUGAGAUUCUUGGAAUUCUCGGGUGCCAA	0.316
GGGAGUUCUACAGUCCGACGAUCAGAGGAAAGGCUGAAGCCGCUAACGCUCACACUGCCUGCACGGCACUGUUGCGGAGAGCUCUGAUGGGAACUGUGCAACAUGGAGCGUGGAGCCUGCCGAUCCUAGCUCAUGGAAUUCUCGGGUGCCAA	0.972
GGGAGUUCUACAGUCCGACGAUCUUAUGCCAAGAAAAGCAUACUAUAAAGCAAAUAUCUAUUAUUCUCCUAAACGAAUGCCUAGCAUAGAGAAAAUACUUAAUACACAUUUGUUGACUUAAAUUUAAUUCAAGUGGAAUUCUCGGGUGCCAA	0.524
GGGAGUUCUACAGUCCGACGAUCUUAAGUCAACUGCAUGCAGCUUUGCUGAUAAAUGAAUAAUUCUCUUUGAUGCCAUUUAUGAGAAAAGACUUCAAUAUCUGUUGCCUGUCAUAUUUAAGAAAAAUUACUGUUGGAAUUCUCGGGUGCCAA	0.905
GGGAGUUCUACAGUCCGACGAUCGAUACUUCCCUCCAAAAAAAAAUCUUUUAAUGUGGAAACAAUAAAUUUCACAGAAAAAAAAAAAAAAGGGUCGAGAUUGCUUUAUUUGGUUCCUGCUGUUCCAUGAGAAAUGGAAUUCUCGGGUGCCAA	0.774

For quick reference, copied from above (set 3):
Sequence	E-score
GAGCCGGA	-0.171
ATCACCGA	0.128
AACGCAAC	0.0897
ATTCGGCC	-0.225
GTTCAAAA	0.154
